Results gathered from unrelated publications.
± gives the spread as reported.
mtnN: 5'-methylthioadenosine/S-adenosylhomocysteine nucleosidase (mtnN, Salmonella choleraesuis, UniProt Q57T48)
Sequence of UniProt Q57T48 (whole entry, looked up): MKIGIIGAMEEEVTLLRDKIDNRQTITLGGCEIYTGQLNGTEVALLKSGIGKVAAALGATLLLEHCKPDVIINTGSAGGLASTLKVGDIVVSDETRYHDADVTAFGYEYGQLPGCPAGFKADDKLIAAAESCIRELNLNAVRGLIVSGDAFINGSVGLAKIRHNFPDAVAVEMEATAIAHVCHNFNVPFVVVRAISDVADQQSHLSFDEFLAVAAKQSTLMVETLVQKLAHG
GP1 NS2B-NS3 protease: Genome polyprotein, NS2B-NS3 protease (GP1, West Nile virus, UniProt Q9Q6P4)
nadD: Probable nicotinate-nucleotide adenylyltransferase (nadD, Mycobacterium tuberculosis, UniProt P9WJJ5)
Sequence of UniProt P9WJJ5 (whole entry, looked up): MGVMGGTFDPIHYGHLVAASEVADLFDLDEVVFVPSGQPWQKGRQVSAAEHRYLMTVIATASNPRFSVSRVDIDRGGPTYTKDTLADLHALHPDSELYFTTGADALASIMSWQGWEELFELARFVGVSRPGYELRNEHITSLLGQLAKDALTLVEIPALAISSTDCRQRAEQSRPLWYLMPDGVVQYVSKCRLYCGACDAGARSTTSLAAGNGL
Sequence of UniProt P31645 (whole entry, unmodified, looked up): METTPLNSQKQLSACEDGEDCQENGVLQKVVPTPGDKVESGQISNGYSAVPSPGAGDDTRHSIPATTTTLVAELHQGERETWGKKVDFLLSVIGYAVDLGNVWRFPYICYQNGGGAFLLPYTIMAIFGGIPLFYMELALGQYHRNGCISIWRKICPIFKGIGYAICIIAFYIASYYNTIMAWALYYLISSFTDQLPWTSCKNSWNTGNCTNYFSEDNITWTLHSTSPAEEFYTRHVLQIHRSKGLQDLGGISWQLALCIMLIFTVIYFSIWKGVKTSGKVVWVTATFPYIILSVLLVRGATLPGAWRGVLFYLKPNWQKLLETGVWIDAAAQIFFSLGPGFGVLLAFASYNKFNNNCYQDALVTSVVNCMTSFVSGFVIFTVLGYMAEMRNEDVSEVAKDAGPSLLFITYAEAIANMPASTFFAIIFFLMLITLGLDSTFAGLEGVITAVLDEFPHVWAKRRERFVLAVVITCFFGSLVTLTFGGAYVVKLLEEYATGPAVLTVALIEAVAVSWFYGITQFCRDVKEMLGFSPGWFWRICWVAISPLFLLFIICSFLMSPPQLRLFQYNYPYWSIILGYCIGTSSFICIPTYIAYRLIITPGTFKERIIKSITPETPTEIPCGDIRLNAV
Sequence of UniProt P29704 (whole entry, looked up): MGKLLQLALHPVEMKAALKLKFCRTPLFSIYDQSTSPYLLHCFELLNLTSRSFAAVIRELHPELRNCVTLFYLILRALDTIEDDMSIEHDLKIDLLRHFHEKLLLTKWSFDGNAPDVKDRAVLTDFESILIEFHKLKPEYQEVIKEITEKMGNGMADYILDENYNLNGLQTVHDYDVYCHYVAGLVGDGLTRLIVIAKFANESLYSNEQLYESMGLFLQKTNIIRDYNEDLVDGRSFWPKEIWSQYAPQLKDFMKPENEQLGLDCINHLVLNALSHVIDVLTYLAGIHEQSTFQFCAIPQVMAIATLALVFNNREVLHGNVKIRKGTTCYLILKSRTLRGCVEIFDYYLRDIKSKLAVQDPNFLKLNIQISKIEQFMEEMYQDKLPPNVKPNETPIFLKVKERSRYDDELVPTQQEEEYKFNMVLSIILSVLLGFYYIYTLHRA
Sequence of UniProt Q9LCT3 (whole entry, looked up): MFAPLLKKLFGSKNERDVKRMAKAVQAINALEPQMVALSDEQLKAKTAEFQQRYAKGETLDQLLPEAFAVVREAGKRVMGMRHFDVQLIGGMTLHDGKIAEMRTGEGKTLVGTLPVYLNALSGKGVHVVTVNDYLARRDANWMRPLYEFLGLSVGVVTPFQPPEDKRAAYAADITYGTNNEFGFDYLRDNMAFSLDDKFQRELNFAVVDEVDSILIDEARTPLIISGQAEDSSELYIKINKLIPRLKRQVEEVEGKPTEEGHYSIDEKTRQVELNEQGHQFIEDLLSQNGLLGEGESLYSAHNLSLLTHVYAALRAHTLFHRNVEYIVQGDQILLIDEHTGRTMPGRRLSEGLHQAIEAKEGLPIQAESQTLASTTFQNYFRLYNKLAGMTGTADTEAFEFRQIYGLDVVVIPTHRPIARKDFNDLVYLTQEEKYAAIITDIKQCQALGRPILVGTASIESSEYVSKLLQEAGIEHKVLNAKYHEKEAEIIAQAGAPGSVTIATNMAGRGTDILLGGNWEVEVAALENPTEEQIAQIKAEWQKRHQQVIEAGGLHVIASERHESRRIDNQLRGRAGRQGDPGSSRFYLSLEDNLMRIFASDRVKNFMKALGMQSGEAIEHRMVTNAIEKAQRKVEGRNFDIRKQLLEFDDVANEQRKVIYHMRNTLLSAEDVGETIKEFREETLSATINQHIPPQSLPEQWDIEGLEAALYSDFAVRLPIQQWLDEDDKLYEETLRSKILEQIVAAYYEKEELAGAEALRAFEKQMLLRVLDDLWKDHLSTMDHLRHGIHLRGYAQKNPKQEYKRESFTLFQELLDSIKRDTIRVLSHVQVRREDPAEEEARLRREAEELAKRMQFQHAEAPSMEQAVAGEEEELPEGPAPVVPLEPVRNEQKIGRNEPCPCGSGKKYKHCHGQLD
Sequence of UniProt P41143 (whole entry, looked up): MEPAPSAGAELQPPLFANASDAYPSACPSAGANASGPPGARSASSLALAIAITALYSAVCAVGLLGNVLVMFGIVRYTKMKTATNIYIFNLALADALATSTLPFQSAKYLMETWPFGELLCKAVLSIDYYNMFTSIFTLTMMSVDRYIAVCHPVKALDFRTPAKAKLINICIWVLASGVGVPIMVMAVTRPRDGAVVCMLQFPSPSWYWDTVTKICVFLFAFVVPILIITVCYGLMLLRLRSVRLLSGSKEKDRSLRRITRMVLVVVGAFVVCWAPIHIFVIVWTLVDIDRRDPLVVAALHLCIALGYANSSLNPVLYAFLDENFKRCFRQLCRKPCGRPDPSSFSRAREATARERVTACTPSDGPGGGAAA

Nc1ncnc2c(CN3CC(O)C(CSCCOCCO)C3)c[nH]c12 (stereo not drawn) — Ki (mtnN; enzyme activity, slow-onset inhibitor; Salmonella enterica): 0.005 ± 0.0007 nM
Clc1ccc(-c2nn3c(COc4cc(Cl)c(OCc5nnc6sc(-c7ccc(Cl)cc7)nn56)cc4Cl)nnc3s2)cc1 — IC50 (GP1 NS2B-NS3 protease; enzyme activity, inhibitor; pH 8.0, added: 20 µM Pyr-RTKR-AMC): 3.02 µM
CC[C@H](C)[C@H](NC(=O)[C@H](Cc1ccc(O)cc1)NC(=O)[C@@H](NC(=O)[C@@H]1CCCN1C(=O)[C@H](CCCNC(=N)N)NC(=O)[C@H](CC(N)=O)NC(=O)[C@H](CC(N)=O)NC(=O)[C@H](CCCN)N=C(N(C)C)N(C)C)C(C)C)C(=O)N1CCC[C@H]1C(=O)N[C@@H](CCCNC(=N)N)C(=O)N1CCC[C@H]1C(=O)N[C@@H](CCCNC(=N)N)C(=O)N1CCC[C@H]1C(=O)N1CCC[C@H]1C(=O)N[C@@H](Cc1c[nH]cn1)C(=O)N1CCC[C@H]1C(=O)N[C@@H](CCCNC(=N)N)C(=O)N[C@@H](CC(C)C)C(=O)O — Kd (binding, fluorescence polarization; 70S ribosome, Pseudomonas aeruginosa ATCC 27853; 90 min, pH 7.6, 28 °C, added: fluorescein-labelled peptide): 0.257 ± 0.008 µM
C=C[C@H]1CN2CC[C@H]1C[C@H]2[C@H](O)c1ccnc2ccccc12 — Ki (SLC6A4 (Homo sapiens, UniProt P31645, I172M); transporter uptake, inhibitor, radiometric): 36000 nM
CCn1cc(C(=O)NCc2ccccn2)c(=O)c2cc(F)c(N3CCN(C(=O)c4ccco4)CC3)cc21 — IC50 (nadD; enzyme activity, inhibitor, released pyrophosphate): > 100 µM
Clc1cc(OCc2nnc3sc(Cc4ccccc4)nn23)c(Cl)cc1OCc1nnc2sc(Cc3ccccc3)nn12 — IC50 (GP1 NS2B-NS3 protease; enzyme activity, inhibitor; pH 8.0, added: 20 µM Pyr-RTKR-AMC): 0.44 µM
CC[C@H](C)[C@H](NC(=O)[C@@H](CCCNC(=N)N)NC(=O)[C@H](CCCNC(=N)N)NC(=O)[C@@H]1CCCN1C(=O)[C@@H]1CCCN1C(=O)[C@H](CCCNC(=N)N)NC(=O)[C@@H]1CCCN1C(=O)[C@H](CCCNC(=N)N)NC(=O)[C@@H]1CCCN1C(=O)[C@H](CC(C)C)NC(=O)[C@H](Cc1ccc(O)cc1)NC(=O)[C@@H]1CCCN1C(=O)[C@@H]1CCCN1C(=O)[C@H](CCCCN)NC(=O)[C@H](CC(=O)O)NC(=O)[C@@H](N)C(C)C)C(=O)N[C@@H](Cc1ccc(O)cc1)C(=O)N[C@@H](CC(N)=O)C(=O)N[C@H](CCCNC(=N)N)C(N)=O — Kd (binding, fluorescence polarization; 70S ribosome, Klebsiella pneumoniae ATCC 10031; 90 min, pH 7.6, 28 °C, added: fluorescein-labelled peptide): 0.077 ± 0.001 µM
Nc1ncnc2c(CN3CC(O)C(CSCCCCO)C3)c[nH]c12 (stereo not drawn) — Ki (mtnN; enzyme activity, slow-onset inhibitor; Salmonella enterica): 0.0148 ± 0.0027 nM
CN[C@H](CC(C)C)C(=O)N[C@H]1C(=O)N[C@@H](CC(N)=O)C(=O)N[C@H]2C(=O)N[C@H]3C(=O)N[C@H](C(=O)N[C@H](C(=O)O)c4cc(O)cc(O)c4-c4cc3ccc4O)[C@H](O)c3ccc(c(Cl)c3)Oc3cc2cc(c3O[C@@H]2O[C@H](CO)[C@@H](O)[C@H](O)[C@H]2O[C@H]2C[C@](C)(N)[C@H](O)[C@H](C)O2)Oc2ccc(cc2Cl)[C@H]1O — Kd (binding, cantilever surface stress; D-Lac peptide surface; pH 7.4, 25 °C, 0.002% PS80): 800 ± 310 µM
c1ccc(CCN2CCCCC2)cc1 — Ki (GABA-A chloride channel, rat; binding; rat cerebral cortex; added: [3H]TBOB 20 nM): > 10000 nM
CCn1cnc2c(Nc3cccc(Cl)c3)nc(N[C@@H]3CCCC[C@@H]3N)nc21 — IC50 (HeLa expressing ODD-Luc; ODD-Luc degradation, inhibitor, cycloheximide chase luciferase): 15 ± 2 µM
glucagon — Kd (binding, OI-RD scanning microscopy; immobilized peptide on epoxy glass; rabbit mAb mixture analyte): 0.000331 µM
CN[C@@](C)(C[18F])C(=O)O — tracer uptake (DU-145 tumour model; host not given, lung; 1 h, tumour-bearing): 1.4 %ID/g
Clc1ccc(-c2nn3c(COc4cccc(OCc5nnc6sc(-c7ccc(Cl)cc7)nn56)c4)nnc3s2)cc1 — IC50 (GP1 NS2B-NS3 protease; enzyme activity, inhibitor; pH 8.0, added: 20 µM Pyr-RTKR-AMC): 1.26 µM
O=C1OC2(c3cc(I)c(O)c(I)c3Oc3c2cc(I)c(O)c3I)c2c(Cl)c(Cl)c(Cl)c(Cl)c21 — IC50 (Protein translocase subunit SecA (secA, Pseudomonas aeruginosa, UniProt Q9LCT3); SecA channel activity, inhibitor, voltage clamp; Xenopus oocytes; RE-13 membranes): 0.3 ± 0.5 µM
Nc1ncnc2n[nH]c(Nc3ccc(F)cc3)c12 — EC50 (HEK293T; PGC-1α/ERRα reporter gene, agonist, qHTS luciferase): 23.7 µM
O=c1[nH]c2ccccc2n1C1CCN(Cc2ccc(-c3nc4cc5[nH]cnc5cc4nc3-c3ccccc3)cc2)CC1 — IC50 (HeLa expressing ODD-Luc; ODD-Luc degradation, inhibitor, cycloheximide chase luciferase): 3.6 ± 0.5 µM
CC(C)=CCC/C(C)=C/CCCCN1[C@H](COP(=O)([O-])OP(=O)([O-])[O-])[C@@]1(C)CC/C=C(\C)CCC=C(C)C.CCCC[N+](CCCC)(CCCC)CCCC.CCCC[N+](CCCC)(CCCC)CCCC.CCCC[N+](CCCC)(CCCC)CCCC (relative stereo) — IC50 (Squalene synthase ERG9 (Saccharomyces cerevisiae, UniProt P29704); enzyme activity, inhibitor; pH 7.2, no added PPi, added: [3H]FPP 100 µM): 1.19 ± 0.05 µM
CCn1cc(C(=O)Nc2nccs2)c(=O)c2cc(F)c(N3CCN(C(=O)c4ccco4)CC3)cc21 — IC50 (nadD; enzyme activity, inhibitor, released pyrophosphate): > 100 µM
Cc1cc(O)cc(C)c1C[C@H](N)C(=O)NCCN(C)CCN1CCc2ccccc2C1 — EC50 (OPRD1 (Homo sapiens, UniProt P41143); GTPγS binding, agonist, radiometric): 1.63 µM
CCn1cc(C(=O)Nc2nnc(C)s2)c(=O)c2cc(F)c(N3CCN(C(=O)c4ccco4)CC3)cc21 — IC50 (nadD; enzyme activity, inhibitor, released pyrophosphate): > 50 µM
NC(=O)CCl — EC50 (HepG2 ARE-bla; ARE reporter gene; 16 h; relative to: 23 µM beta-naphthoflavone): 9.47 µM
Cc1cn([C@H]2C[C@H](N=[N+]=[N-])[C@@H](CO)O2)c(=O)[nH]c1=O — IC50 (HIV-1; viral replication, inhibitor, luciferase reporter; MT2 and TZM-bl cells): 0.078 µM
CCn1cc(C(=O)NCc2ccncc2)c(=O)c2cc(F)c(N3CCN(C(=O)c4ccco4)CC3)cc21 — IC50 (nadD; enzyme activity, inhibitor, released pyrophosphate): 76.1 ± 16.4 µM
